# Published values of several laboratories.
# Protocols differ between the studies behind these lines. ± gives the spread as reported.
# UniProt P0A988, sequence (whole entry, looked up): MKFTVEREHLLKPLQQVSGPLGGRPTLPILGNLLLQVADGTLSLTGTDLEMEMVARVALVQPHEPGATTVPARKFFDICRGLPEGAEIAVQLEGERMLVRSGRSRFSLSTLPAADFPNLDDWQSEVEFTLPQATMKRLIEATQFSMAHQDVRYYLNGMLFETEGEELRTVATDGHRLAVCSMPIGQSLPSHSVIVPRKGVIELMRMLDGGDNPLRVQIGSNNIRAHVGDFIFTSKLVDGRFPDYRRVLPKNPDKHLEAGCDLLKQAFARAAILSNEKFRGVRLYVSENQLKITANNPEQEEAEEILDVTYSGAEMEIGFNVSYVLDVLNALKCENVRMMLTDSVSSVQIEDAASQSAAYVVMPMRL
# UniProt Q4VWF8, sequence (whole entry, looked up): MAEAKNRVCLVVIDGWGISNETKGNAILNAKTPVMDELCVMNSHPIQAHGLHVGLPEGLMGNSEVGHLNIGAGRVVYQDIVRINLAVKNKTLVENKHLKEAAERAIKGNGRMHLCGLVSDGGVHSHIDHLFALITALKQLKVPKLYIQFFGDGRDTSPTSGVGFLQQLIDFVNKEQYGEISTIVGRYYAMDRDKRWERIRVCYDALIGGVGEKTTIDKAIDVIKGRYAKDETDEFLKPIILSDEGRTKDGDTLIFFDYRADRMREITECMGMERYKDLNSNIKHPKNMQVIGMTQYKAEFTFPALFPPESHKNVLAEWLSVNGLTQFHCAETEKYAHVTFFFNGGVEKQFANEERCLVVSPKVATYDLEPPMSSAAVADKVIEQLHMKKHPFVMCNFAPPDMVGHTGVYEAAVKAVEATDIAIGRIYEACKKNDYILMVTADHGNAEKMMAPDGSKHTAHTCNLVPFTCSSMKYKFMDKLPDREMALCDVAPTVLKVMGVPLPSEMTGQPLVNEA
Compound,target or system,assay,system,setting,scale,quantity,value
CNC(=O)Oc1cc(C)c(S(C)(=O)=O)c(C)c1,,,human liver mitochondrial preparation,"1 µM, 30 min, 0.5 mg/mL protein",,percent metabolized,33.1%
N=C(N)NCCC[C@@H]1NC(=O)[C@H](CCCCNC(=O)CNC(=O)CNC(=O)CNC(=O)CC[C@H](NC(=O)CCOCCOCCOCCOCCNC(=O)CC[C@H](NC(=O)CN2CCN(CC(=O)O)CCN(CC(=O)O)CCN(CC(=O)O)CC2)C(=O)NCCOCCOCCOCCOCCC(=O)N[C@@H](CCC(=O)NCC(=O)NCC(=O)NCC(=O)NCCCC[C@@H]2NC(=O)[C@@H](Cc3ccccc3)NC(=O)[C@H](CC(=O)O)NC(=O)CNC(=O)[C@H](CCCNC(=N)N)NC2=O)C(=O)NCC(=O)NCC(=O)NCC(=O)NCCCC[C@@H]2NC(=O)[C@@H](Cc3ccccc3)NC(=O)[C@H](CC(=O)O)NC(=O)CNC(=O)[C@H](CCCNC(=N)N)NC2=O)C(=O)NCC(=O)NCC(=O)NCC(=O)NCCCC[C@@H]2NC(=O)[C@@H](Cc3ccccc3)NC(=O)[C@H](CC(=O)O)NC(=O)CNC(=O)[C@H](CCCNC(=N)N)NC2=O)NC(=O)[C@@H](Cc2ccccc2)NC(=O)[C@H](CC(=O)O)NC(=O)CNC1=O [indium-111 labelled],,,"female athymic nude mice, muscle","intravenous, 3 µCi, 1 h, U-87 MG glioma xenograft",,tissue uptake,0.98 ± 0.11 %ID/g
COc1ccc(C[C@H]2C(=O)N[C@@H](CC(N)=O)C(=O)N[C@@H](CC(=O)O)C(=O)N[C@@H](CO)C(=O)NCC(=O)N[C@@H](Cc3c[nH]c4ccccc34)C(=O)N(C)[C@@H](Cc3ccc(O)cc3)C(=O)N[C@@H](CC(N)=O)C(=O)N[C@@H]([C@@H](C)O)C(=O)N(C)[C@@H](Cc3ccccc3)C(=O)N[C@H](C(N)=O)CSCC(=O)N[C@@H](Cc3ccc(O)cc3)C(=O)N2C)cc1,"ipgm-1 (Brugia malayi, UniProt Q4VWF8)","enzyme activity, inhibitor, luminescent coupled-enzyme ATP",,,,AC50,> 76.8 µM
CCCCCCCCCCCCCCC(=O)O.O=C1CCCC2C3CCCN4CCCC(CN12)C34 (stereo not shown),,shake-flask,simulated gastric fluid,"pH 1.2, 25 °C",,log octanol-water partition coefficient,-1.17
CCN(CC)c1ccc2c(-c3ccccc3C(=O)OCCOCC[18F])c3ccc(=[N+](CC)CC)cc-3oc2c1,,microPET,"rat, liver","dose not given, 5 min post injection",,radioactivity concentration,59 ± 2 kBq/cm³
NS(=O)(=O)c1ccc(N2N=C(C(F)(F)F)CC2c2ccc(F)cc2F)cc1 (stereo not shown),,general toxicity,beagle dog,"oral, multiple doses, once daily",,NOAEL,1 mg/kg/day
COCC(=O)NCCSc1c(-c2ccc(Br)cc2)[nH]c2ccccc12,,metabolic stability,"human, hepatocytes",,,hepatocyte CLint,259 µL/min/10⁶ cells
CCNc1cc2[o+]c3cc(NCC)c(C)cc3c(-c3ccccc3C(=O)OCCOCC[18F])c2cc1C,,PET,rat,35 min p.i.,,heart to liver ratio,4.2
CC(C)C[C@H](NC(=O)[C@H](CCCCN)NC(=O)[C@H](CCC(=O)O)NC(=O)[C@H](C)NC(=O)[C@@H](NC(=O)[C@H](CCCCN)NC(=O)[C@H](CC(=O)O)NC(=O)[C@H](Cc1ccc(O)cc1)NC(=O)[C@H](Cc1ccccc1)NC(=O)[C@H](C)NC(=O)[C@H](CCCCN)NC(=O)[C@H](CC(C)C)NC(=O)[C@H](Cc1c[nH]c2ccccc12)NC(=O)[C@@H](N)CC(=O)O)C(C)C)C(=O)N[C@@H](CCCCN)C(=O)N[C@@H](CCC(=O)O)C(=O)N[C@@H](C)C(=O)N[C@@H](Cc1ccccc1)C(=O)N1CCC[C@H]1C(=O)N[C@@H](CC(=O)O)C(=O)N[C@@H](Cc1c[nH]c2ccccc12)C(=O)N[C@@H](C)C(=O)N[C@@H](CCCCN)C(=O)N[C@@H](C)C(=O)N[C@@H](C)C(=O)N[C@@H](Cc1ccc(O)cc1)C(=O)N[C@@H](CC(=O)O)C(=O)N[C@@H](CCCCN)C(=O)N[C@@H](C)C(=O)N[C@@H](C)C(=O)N[C@@H](CCC(=O)O)C(=O)N[C@@H](CCCCN)C(=O)N[C@@H](C)C(=O)N[C@@H](CCCCN)C(=O)N[C@@H](CCC(=O)O)C(=O)N[C@@H](C)C(=O)N[C@@H](C)C(=O)O,,,"cynomolgus monkey female, plasma","intravenous infusion, 25 mg/kg every other day, day 27",,clearance,0.117 mL/min/kg
COc1cc(NC(=O)C(=O)c2c(C)n(Cc3ccc(Cl)cc3)c3ccc(C)cc23)ccn1,,,"male cynomolgus monkey, plasma","intravenous, 1 mg/kg, mean",,clearance,7.97 mL/min/kg
CN(C)CC1CCCCC1(O)c1cccc(O)c1 (stereo not shown),,,Caco-2,"1 µM, 3 h, pH 6.8",,efflux ratio,1.9
CC1=CC=c2ccc3c4c2[N]1[Re](=[C]=O)(=[C]=O)(=[C]=O)([C]#[N+]c1c(C)cccc1C)[N]4C(C)=CC=3.O=S(=O)([O-])C(F)(F)F,,,PBS,"10 µM, air-equilibrated",,luminescence lifetime,1.2 µs
CC[C@H](C)[C@H](NC(=O)[C@H](Cc1ccccc1)NC(=O)[C@H](CC(=O)O)NC(=O)[C@H](CN)NC(=O)[C@H](Cc1ccccc1)NC(=O)[C@H](Cc1ccccc1)NC(=O)[C@H](CCCCN)NC(=O)[C@H](CN)NC(=O)[C@H](CC(C)C)NC(=O)[C@H](CCCNC(=N)N)NC(=O)[C@H](CCSC)NC(=O)[C@H](C)N)C(=O)N[C@@H](CC(C)C)C(=O)N[C@@H](CCC(N)=O)C(=O)N[C@@H](CCCNC(=N)N)C(=O)N[C@@H](CCCCN)C(=O)N[C@@H](CCCCN)C(=O)O,,circular dichroism,20% TFE in PBS,"200 µM, pH 7.4, 25 °C",,helicity,14.7%
O=S(=O)(O)C(F)(F)C(F)(F)OC(F)(C(F)(F)F)C(F)(F)OC(F)C(F)(F)F (stereo not shown),,,"human, serum",,,age effect on concentration,0.017 ng/mL per year
COC(=O)C[C@H](NC(=O)[C@H](C)NC(=O)[C@@H](NC(=O)[C@H](CC(=O)OC)NC(=O)[C@@H](NC(=O)c1ccc2ccccc2n1)C(C)C)C(C)C)C(=O)COc1c(F)cccc1F,,,rat pups,"1 mg/kg, 1 h",,heart rate,344 ± 12 beats/min
N=C(N)NCc1ccc(C(=O)NCCCC[C@H](NC(=O)CCCCCCC(=O)NCCCC[C@H](NC(=O)N[C@@H](CCC(=O)O)C(=O)O)C(=O)O)C(=O)O)cc1[211At],,,"SCID mouse, PC-3 xenografts, muscle",2 h,,tissue uptake,0.21 ± 0.03 %ID/g
O=c1c(-c2cnn(-c3ccccc3)c2)c(C(F)(F)F)oc2c(O)c(O)ccc12,,,"BALB/c nude mouse, female","intraperitoneal, 7 d",,no adverse effect level,50 mg/kg
CC(=O)OC1O[C@@H]2O[C@@]3(C)CC[C@H]4[C@H](C)CCC([C@H]1C)[C@@]24OO3 (stereo partly shown),,,Tg(fli1:EGFP) zebrafish embryos,"75 µg/mL, up to 48 hpf",,dead embryos,3 count
CCC(=O)N(C)c1ccc(Cl)c(Cl)c1,Salmonella typhimurium,Ames test,TA98,"0.05 mg/plate, without S9",,revertants,28 ± 8.1 revertants/plate
O=c1cc(-c2ccccc2)oc2c(Br)c(O)c(O)c(O)c12,,,"C57BL/6 mouse, plasma","intravenous, 10 mg/kg, single dose",,MRT(0-t),1.5 h
O=C(O)CCC(NP(=O)(O)OCCC[C@@H](NC(=O)CCC(NC(=O)CCCCCNC(=O)c1ccc([18F])cc1)C(=O)O)C(=O)O)C(=O)O (stereo partly shown),CWR22Rv1 tumour model,,"host not given, muscle","intravenous, 1 h, tumour-bearing",,tracer uptake,0.12 %ID/g
CC[C@H](C)C(=O)N1CCC(NC(=O)Nc2ccc(OC(F)(F)F)c(F)c2)CC1,,,healthy volunteers,"oral, 8 mg single dose",,subjects with palpitations TEAE,0%
CCCCCCCC/C=C\CCCCCCCCOP(O)(O)=S.N,,,"mouse, female, irradiated","sc, dose not given, 15.6 Gy partial-body, dosed 24 h after",,AUC(0-inf),1590 ng·h/mL
CC(c1ccc(Br)cc1)N1CCCC(n2c(=O)[nH]c3cc(Cl)c(Cl)cc32)CC1 (stereo not shown),,,"male C57BL/6 mouse, brain","intraperitoneal, 3 mg/kg, 1 h",,concentration,463 nM
[11CH3]n1c(=O)n(CCCO)c(=O)c2c1nc(Oc1cccc(OC(F)(F)F)c1)n2Cc1ccc(Cl)cc1,,ex vivo biodistribution,"Sprague Dawley rat, blood",5 min post injection,,tracer uptake,0.22 ± 0.05 %ID/g
CC[C@H](C)[C@H](NC(=O)[C@H](CC(=O)O)NC(=O)[C@H](CO)NC(=O)[C@H](CCC(N)=O)NC(=O)[C@H](C)NC(=O)[C@H](CC(=O)O)NC(=O)[C@H](CCC(=O)O)NC(=O)[C@H](Cc1c[nH]cn1)NC(=O)[C@H](Cc1ccc(O)cc1)NC(=O)[C@H](C)NC(=O)[C@H](CC(=O)O)NC(=O)[C@H](CCC(=O)O)NC(=O)[C@H](Cc1c[nH]cn1)NC(=O)[C@H](Cc1ccc(O)cc1)NC(=O)[C@H](C)NC(=O)[C@H](CC(=O)O)NC(=O)[C@H](CCC(=O)O)NC(=O)[C@H](Cc1c[nH]cn1)NC(=O)[C@H](Cc1ccc(O)cc1)NC(=O)[C@H](C)NC(=O)[C@H](CC(=O)O)NC(=O)[C@H](CCC(=O)O)NC(=O)[C@H](Cc1c[nH]cn1)NC(=O)[C@H](Cc1ccc(O)cc1)NC(=O)[C@H](C)NC(=O)[C@H](CC(=O)O)NC(=O)[C@H](CCC(=O)O)NC(=O)[C@H](Cc1c[nH]cn1)NC(=O)[C@@H](N)Cc1ccc(O)cc1)C(=O)N[C@H](C(=O)N[C@@H](C)C(=O)N[C@@H](Cc1c[nH]cn1)C(=O)N[C@@H](CC(C)C)C(=O)N[C@@H](CC(C)C)C(=O)O)C(C)C,,,"mouse, SN model",dose not given,,haematocrit,41.5 ± 5.7%
CC(=O)N[C@@H](CCC(=O)O)C(=O)N[C@@H](CCC(N)=O)C(=O)N[C@H](C(=O)N[C@@H](CCC(=O)O)C(=O)N[C@@H](CC(C)C)C(=O)N[C@@H](CCC(=O)O)C(=O)N[C@@H](Cc1ccccc1)C(=O)N[C@@H](CC(=O)O)C(=O)O)C(C)C,"Beta sliding clamp (Escherichia coli, UniProt P0A988)",HDX-MS,,"concentration not given, 2 h, pH pD 7.4, 37 °C",,deuterium uptake,162 ± 2 Da
CN[C@](C)(C[18F])C(=O)O,MDA-MB-468 tumour model,,"host not given, pancreas","2 h, tumour-bearing",,tracer uptake,12 %ID/g
O=C([O][Ti+2][O]C(=O)c1ccc([P+]([Au-][Cl])(c2ccccc2)c2ccccc2)cc1)c1ccc([P+]([Au-][Cl])(c2ccccc2)c2ccccc2)cc1.c1cc[cH-]c1.c1cc[cH-]c1,,,"C57BL/6 mice, female","subcutaneous, 15 mg/kg/day",,time to death,< 24 h
O=C(O)Cc1cccc(OC(=O)NCCCCCn2ccc3ccc(F)cc32)c1,,,PBS with Triton X-100,"20 µM, 60 min, pH 7.4",,parent remaining,> 95%
CC[C@H](C)[C@@H]1NC(=O)[C@H](CCCCN)NC(=O)[C@H](CCCCN)NC(=O)[C@H](Cc2ccc(O)cc2)NC(=O)[C@H](CC(C)C)NC(=O)[C@@H]2CCCN2C(=O)CNC(=O)CNC(=O)[C@@H](NC(=O)CN)CSSC[C@@H](C(=O)N[C@@H](CCC(=O)O)C(=O)N[C@@H](CO)C(N)=O)NC(=O)[C@H](CC(C)C)NC(=O)[C@H](CCCCN)NC(=O)[C@H](CCCCN)NC(=O)[C@H]([C@@H](C)CC)NC(=O)[C@H]([C@@H](C)CC)NC(=O)[C@H](CCCCN)NC(=O)[C@H](CCCCN)NC(=O)[C@H](Cc2ccc(O)cc2)NC(=O)[C@H](CC(C)C)NC(=O)[C@@H]2CCCN2C(=O)[C@H](C)NC(=O)CNC(=O)CNC(=O)[C@H](CO)NC(=O)CNC(=O)CNC(=O)[C@H](CO)NC(=O)[C@H](CCCCN)NC(=O)[C@H](CC(C)C)NC(=O)[C@H](CC(C)C)NC(=O)[C@H](CCCCN)NC(=O)[C@H](CCCCN)NC(=O)[C@H]([C@@H](C)CC)NC1=O,,,25% human serum,"50 µM, 24 h",relative to: 0 h control,remaining intact peptide,0%

# Excerpt of the above:
Compound,target or system,assay,system,setting,scale,quantity,value
O=C(O)CCC(NP(=O)(O)OCCC[C@@H](NC(=O)CCC(NC(=O)CCCCCNC(=O)c1ccc([18F])cc1)C(=O)O)C(=O)O)C(=O)O (stereo partly shown),CWR22Rv1 tumour model,,"host not given, muscle","intravenous, 1 h, tumour-bearing",,tracer uptake,0.12 %ID/g
CC(=O)OC1O[C@@H]2O[C@@]3(C)CC[C@H]4[C@H](C)CCC([C@H]1C)[C@@]24OO3 (stereo partly shown),,,Tg(fli1:EGFP) zebrafish embryos,"75 µg/mL, up to 48 hpf",,dead embryos,3 count
